Values quoted from earlier work as cited in several papers.
Lines come from different studies, so protocols differ. ± marks the error that the study gave.

For `CC[C@H](C)[C@H](NC(=O)[C@H](Cc1c[nH]c2ccccc12)NC(=O)[C@H](CCCNC(=N)N)NC(=O)[C@@H](N)CCCNC(=N)N)C(=O)N[C@@H](CCC(N)=O)C(=O)N[C@@H](CC(C)C)C(=O)NCC(=O)N[C@@H](CC(C)C)C(=O)N[C@@H](CCC(N)=O)C(=O)N[C@@H](CCCCN)C(=O)O`, the IC50 was 12 nM (Mamu-B*03 MHC class I; peptide binding, competitor, competitive binding).
`O=C1[C@@H]2CCCN2[C@H](c2ccc([N+](=O)[O-])cc2)N1c1ccc([N+](=O)[O-])cc1` — result for IC50: “inactive” (dengue virus 2 NS2B-NS3 protease; inhibitor).
With `CC(C)C[C@@H](CN[C@@H](CC(C)C)C(N)=O)NC(=O)[C@H](Cc1c[nH]cn1)NC(=O)CNC(=O)[C@@H](NC(=O)[C@H](C)NC(=O)[C@H](Cc1c[nH]c2ccccc12)NC(=O)[C@H](CCC(N)=O)NC(=O)[C@H](CC(N)=O)NC(=O)CNC(=O)[C@H](CC(C)C)NC(=O)[C@H](CCCNC(=N)N)NC(=O)[C@H](CCC(N)=O)NC(=O)[C@@H]1CCC(=O)N1)C(C)C` the IC50 was 65 ± 8 nM (mouse GRP receptor; binding; literature species comparison).
With `COc1cc(/C=C/C(=O)N2CCC(Cc3ccccc3)CC2)ccc1OCCCCN(N1CCCc2ccccc21)N1CCCc2ccccc21` the IC50 was 8600 nM (MAO-B).
For `CN(C)c1ccc(NC(=O)CCCCCNC(=O)CS)cc1`, the IC50 was 600 nM (total HDAC).
With `Clc1ccc(-c2nnc(-c3cncc(-c4ccccc4)c3)o2)cc1` the IC50 was 4.77 nM (butyrylcholinesterase; inhibitor).
`C#CCN(C)Cc1cc2cc(OCCCN3CCCCC3)ccc2n1C` has an IC50 of 1690 nM (butyrylcholinesterase, human; inhibitor).
With `O=c1cc(Cc2ccc(-c3ccccc3)cc2)c2cccnc2n1O` the IC50 was 2400 nM (HIV-1 integrase; strand transfer, inhibitor).
`CC[C@H](C)[C@H](NC(=O)[C@@H](NC(=O)[C@@H](NC(=O)[C@H](CCCNC(=N)N)NC(=O)[C@@H](N)CCCCN)C(C)C)C(C)C)C(=O)N[C@@H](CC(N)=O)C(=O)N[C@@H](CCCCN)C(=O)N[C@@H](CC(=O)O)C(=O)N[C@H](C(=O)O)[C@@H](C)O` gave an IC50 of 12500 nM (Mamu-B*08 MHC class I; peptide binding, competitor, competitive binding).
For `C=C1C(=O)N[C@@H](C)C(=O)N(C)[C@@H](C)C(=O)N[C@@H]([C@H](OC(=O)[C@@H](NC(=O)CC)[C@H](O)C(C)C)C(C)C)C(=O)N(C)[C@@H]([C@@H](C)OC)C(=O)O[C@H](C(C)C)[C@H](NC(C)=O)C(=O)O[C@H](Cc2ccccc2)C(=O)N1C`, the IC50 was 32 nM (Gαq/11; inhibitor).
For `COc1cc(/C=C/C(=O)NCC(C)(C)CNC(=O)/C=C/c2ccc(OC(C)=O)c(OC)c2)ccc1OC(C)=O`, the IC50 was 350 nM (AChE).
`CSCC[C@H](N)C(=O)N1CCC[C@H]1C(=O)Nc1ccc([N+](=O)[O-])cc1` has an IC50 of 1200 ± 400 nM (dengue virus 2 NS2B-NS3 protease; inhibitor).
The IC50 of `O=C[C@H](C[C@@H]1CCNC1=O)NC(=O)[C@H](Cc1ccccc1)NC(=O)/C=C/c1cccc(Br)c1` is reported as under 500 nM (enterovirus 71 3C protease; enzyme activity, inhibitor).
For `Nc1ccc2oc(CN3CCN(c4ccc(Br)cc4)CC3)nc2c1`, the IC50 was 52 ± 10 nM (Electrophorus electricus acetylcholinesterase; enzyme activity, inhibitor).
The IC50 of `CCn1c2ccccc2c2cc(-c3c(C(=O)OCCOC)c(C)nc4c3C(=O)CCC4)ccc21` is reported as 9720 nM (butyrylcholinesterase, horse; enzyme activity, inhibitor).
With `CNC(=O)Oc1cccc(CN(C)CCCCCOC(=O)/C=C/c2ccc(O)c(OC)c2)c1` the IC50 was 660 nM (BChE).
For `CC(C)(C)OC(=O)N1CCN(C(=O)CCCc2c[nH]c3ccccc23)CC1`, the IC50 was under 1000 nM (5-lipoxygenase; inhibitor, cell-based).
With `CC[C@H](C)[C@H](N)C(=O)N[C@@H](CCCNC(=N)N)C(=O)N[C@@H](CC(C)C)C(=O)N[C@@H](CCCNC(=N)N)C(=O)N1CCC[C@H]1C(=O)NCC(=O)NCC(=O)N[C@@H](CCCCN)C(=O)N[C@@H](CCCCN)C(=O)O` the IC50 was 2200 nM (Mamu-B*08 MHC class I; peptide binding, competitor, competitive binding).
`Nc1nc(=O)n(C2CCCS2)cc1C#CCNS(=O)(=O)C1CC1` (centres unmarked) has an IC50 of 7700 ± 1450 nM (IspE Klebsiella pneumoniae; enzyme activity, inhibitor).
For `CC(C)[C@@H]1NC(=O)[C@H](CCCCN)NC(=O)[C@@H](Cc2c[nH]c3ccccc23)NC(=O)[C@H](Cc2ccc(O)cc2)NC(=O)[C@@H](NC(=O)[C@H](N)Cc2ccc3ccccc3c2)CSSC[C@@H](C(=O)N[C@@H](Cc2ccc3ccccc3c2)C(N)=O)NC1=O`, the IC50 was 4570 nM (bombesin receptor BB2; concentration not given).
`CO[C@H]1CC=C2CCN3CCC4=C(CC(=O)CC4)[C@]23C1` gave an IC50 of 23000 nM (α3β4 nicotinic acetylcholine receptor; inhibitor).
`CN(C)c1ccc(/C=C/C(=O)N[C@@H](Cc2ccccc2)C(=O)N[C@H](C=O)C[C@@H]2CCNC2=O)cc1` gave an IC50 of under 500 nM (enterovirus 71 3C protease; enzyme activity, inhibitor).
With `N#CC1CC2CC2N1C(=O)C1CC(NS(=O)(=O)c2ccc(Cl)cc2)CN1` (centres unmarked) the IC50 was 6.7 nM (DPP-IV; enzyme activity, inhibitor).
`CCn1c(CC(=O)N2CCN(c3ccccc3)CC2)nc2sc3c(c2c1=O)CCCC3` has an IC50 of 59 nM (BChE).
For `CC(C)C[C@H](NC(=O)[C@H](C)NC(=O)[C@H](CCC(=O)O)NC(=O)[C@H](Cc1c[nH]c2ccccc12)NC(=O)CNC(=O)[C@H](CCCNC(=N)N)NC(=O)[C@H](CCCNC(=N)N)NC(=O)CN)C(=O)N[C@@H](CCCCN)C(=O)N[C@@H](Cc1ccc(O)cc1)C(=O)O`, the IC50 was 1880 nM (Mamu-B*08 MHC class I; peptide binding, competitor, competitive binding).
For `CCN(CC)CCNC(=O)c1ccc(CN2CCc3ccccc3C2)cc1`, the IC50 was 17900 nM (butyrylcholinesterase; enzyme activity, inhibitor).
